# Results of several laboratories.
# By UniProt entry, the sequences of proteins in these tests, tags left out.
# UniProt P30291, whole entry: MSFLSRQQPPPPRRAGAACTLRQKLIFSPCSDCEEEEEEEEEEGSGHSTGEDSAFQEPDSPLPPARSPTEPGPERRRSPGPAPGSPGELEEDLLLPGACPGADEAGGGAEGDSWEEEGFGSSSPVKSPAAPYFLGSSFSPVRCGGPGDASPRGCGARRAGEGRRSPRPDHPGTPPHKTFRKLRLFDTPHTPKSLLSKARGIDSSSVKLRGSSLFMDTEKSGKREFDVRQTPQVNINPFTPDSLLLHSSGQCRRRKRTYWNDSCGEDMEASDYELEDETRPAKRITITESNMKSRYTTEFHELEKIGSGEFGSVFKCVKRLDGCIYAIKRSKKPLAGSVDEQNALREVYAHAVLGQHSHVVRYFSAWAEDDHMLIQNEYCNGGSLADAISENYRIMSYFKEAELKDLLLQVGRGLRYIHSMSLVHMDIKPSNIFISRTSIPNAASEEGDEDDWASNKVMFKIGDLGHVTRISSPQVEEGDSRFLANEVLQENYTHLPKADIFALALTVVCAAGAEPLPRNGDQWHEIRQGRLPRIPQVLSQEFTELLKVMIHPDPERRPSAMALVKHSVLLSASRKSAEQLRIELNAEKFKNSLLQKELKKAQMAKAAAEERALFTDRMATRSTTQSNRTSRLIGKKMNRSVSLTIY
# UniProt Q96SW2, whole entry: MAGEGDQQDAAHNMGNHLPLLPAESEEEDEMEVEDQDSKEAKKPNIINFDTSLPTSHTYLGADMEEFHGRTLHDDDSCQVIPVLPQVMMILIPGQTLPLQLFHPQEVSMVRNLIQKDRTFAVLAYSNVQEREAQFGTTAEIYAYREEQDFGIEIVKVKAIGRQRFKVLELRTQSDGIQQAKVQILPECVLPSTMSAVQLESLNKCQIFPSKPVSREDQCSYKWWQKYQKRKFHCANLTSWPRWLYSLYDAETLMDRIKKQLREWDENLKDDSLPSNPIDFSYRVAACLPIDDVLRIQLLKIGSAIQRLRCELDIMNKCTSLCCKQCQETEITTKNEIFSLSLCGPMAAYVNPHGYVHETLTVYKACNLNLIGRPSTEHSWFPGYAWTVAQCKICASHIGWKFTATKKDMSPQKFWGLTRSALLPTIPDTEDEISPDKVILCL
# UniProt Q02750, whole entry: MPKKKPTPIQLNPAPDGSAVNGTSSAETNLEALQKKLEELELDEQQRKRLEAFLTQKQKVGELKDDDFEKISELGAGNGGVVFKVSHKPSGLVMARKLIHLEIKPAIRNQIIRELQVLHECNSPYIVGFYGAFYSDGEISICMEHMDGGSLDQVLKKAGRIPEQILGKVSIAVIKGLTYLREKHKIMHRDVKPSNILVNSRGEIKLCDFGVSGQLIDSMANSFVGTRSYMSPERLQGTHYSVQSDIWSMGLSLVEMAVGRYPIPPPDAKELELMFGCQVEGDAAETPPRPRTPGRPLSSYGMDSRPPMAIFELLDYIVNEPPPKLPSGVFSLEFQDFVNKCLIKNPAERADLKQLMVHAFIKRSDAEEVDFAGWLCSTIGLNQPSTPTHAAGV
# UniProt P26842, whole entry, looked up: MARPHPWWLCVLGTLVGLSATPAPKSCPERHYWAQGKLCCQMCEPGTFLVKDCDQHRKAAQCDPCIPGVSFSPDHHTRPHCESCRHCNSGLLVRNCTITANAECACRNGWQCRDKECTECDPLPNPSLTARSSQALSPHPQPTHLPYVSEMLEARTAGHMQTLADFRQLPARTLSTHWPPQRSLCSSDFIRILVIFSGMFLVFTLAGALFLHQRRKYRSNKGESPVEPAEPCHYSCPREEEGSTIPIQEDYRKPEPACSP
# UniProt Q9UHM6, whole entry: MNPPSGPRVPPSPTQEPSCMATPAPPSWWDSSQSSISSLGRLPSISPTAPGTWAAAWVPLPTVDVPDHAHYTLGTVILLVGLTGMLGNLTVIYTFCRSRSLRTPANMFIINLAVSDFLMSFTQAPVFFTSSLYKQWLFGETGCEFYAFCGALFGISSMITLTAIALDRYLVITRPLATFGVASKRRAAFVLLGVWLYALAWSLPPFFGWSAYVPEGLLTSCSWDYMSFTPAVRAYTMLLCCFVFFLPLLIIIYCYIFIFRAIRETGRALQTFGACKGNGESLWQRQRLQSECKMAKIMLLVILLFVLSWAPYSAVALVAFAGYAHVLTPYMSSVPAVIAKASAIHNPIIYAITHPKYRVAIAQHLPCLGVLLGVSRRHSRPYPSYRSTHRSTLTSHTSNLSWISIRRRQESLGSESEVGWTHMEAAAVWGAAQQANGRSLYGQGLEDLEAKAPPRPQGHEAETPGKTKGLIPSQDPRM
# UniProt Q07817, whole entry: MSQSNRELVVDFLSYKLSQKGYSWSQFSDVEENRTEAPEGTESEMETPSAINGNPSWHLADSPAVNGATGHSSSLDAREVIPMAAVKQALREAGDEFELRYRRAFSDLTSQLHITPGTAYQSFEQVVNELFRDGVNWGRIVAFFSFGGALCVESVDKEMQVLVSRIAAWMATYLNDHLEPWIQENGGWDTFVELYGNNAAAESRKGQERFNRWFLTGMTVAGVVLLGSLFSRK
# UniProt O60502, whole entry: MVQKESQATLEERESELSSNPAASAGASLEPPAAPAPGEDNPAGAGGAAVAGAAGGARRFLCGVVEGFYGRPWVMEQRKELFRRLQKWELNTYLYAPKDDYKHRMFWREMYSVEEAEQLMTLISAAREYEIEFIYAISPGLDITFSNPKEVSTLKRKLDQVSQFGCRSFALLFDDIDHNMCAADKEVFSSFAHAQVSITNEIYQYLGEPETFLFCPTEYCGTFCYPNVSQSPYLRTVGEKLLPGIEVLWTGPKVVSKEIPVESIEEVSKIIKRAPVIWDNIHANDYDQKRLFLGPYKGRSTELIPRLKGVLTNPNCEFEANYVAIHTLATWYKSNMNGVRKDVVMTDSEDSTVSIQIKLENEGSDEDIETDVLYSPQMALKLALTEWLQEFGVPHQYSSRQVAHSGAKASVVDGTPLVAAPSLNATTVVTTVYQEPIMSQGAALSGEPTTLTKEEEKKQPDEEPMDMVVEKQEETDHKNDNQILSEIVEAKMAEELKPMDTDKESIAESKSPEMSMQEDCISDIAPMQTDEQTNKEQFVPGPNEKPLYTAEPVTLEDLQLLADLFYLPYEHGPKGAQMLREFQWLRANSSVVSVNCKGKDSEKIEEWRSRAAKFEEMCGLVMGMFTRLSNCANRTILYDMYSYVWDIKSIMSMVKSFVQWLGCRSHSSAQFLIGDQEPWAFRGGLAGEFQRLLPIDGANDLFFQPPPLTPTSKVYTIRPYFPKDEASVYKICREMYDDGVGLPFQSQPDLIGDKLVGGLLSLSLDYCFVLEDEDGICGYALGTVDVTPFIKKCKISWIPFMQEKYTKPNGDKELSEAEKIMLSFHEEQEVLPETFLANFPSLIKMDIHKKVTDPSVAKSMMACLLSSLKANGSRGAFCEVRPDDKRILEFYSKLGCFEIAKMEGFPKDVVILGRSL
# UniProt Q86U86, whole entry V269I, looked up: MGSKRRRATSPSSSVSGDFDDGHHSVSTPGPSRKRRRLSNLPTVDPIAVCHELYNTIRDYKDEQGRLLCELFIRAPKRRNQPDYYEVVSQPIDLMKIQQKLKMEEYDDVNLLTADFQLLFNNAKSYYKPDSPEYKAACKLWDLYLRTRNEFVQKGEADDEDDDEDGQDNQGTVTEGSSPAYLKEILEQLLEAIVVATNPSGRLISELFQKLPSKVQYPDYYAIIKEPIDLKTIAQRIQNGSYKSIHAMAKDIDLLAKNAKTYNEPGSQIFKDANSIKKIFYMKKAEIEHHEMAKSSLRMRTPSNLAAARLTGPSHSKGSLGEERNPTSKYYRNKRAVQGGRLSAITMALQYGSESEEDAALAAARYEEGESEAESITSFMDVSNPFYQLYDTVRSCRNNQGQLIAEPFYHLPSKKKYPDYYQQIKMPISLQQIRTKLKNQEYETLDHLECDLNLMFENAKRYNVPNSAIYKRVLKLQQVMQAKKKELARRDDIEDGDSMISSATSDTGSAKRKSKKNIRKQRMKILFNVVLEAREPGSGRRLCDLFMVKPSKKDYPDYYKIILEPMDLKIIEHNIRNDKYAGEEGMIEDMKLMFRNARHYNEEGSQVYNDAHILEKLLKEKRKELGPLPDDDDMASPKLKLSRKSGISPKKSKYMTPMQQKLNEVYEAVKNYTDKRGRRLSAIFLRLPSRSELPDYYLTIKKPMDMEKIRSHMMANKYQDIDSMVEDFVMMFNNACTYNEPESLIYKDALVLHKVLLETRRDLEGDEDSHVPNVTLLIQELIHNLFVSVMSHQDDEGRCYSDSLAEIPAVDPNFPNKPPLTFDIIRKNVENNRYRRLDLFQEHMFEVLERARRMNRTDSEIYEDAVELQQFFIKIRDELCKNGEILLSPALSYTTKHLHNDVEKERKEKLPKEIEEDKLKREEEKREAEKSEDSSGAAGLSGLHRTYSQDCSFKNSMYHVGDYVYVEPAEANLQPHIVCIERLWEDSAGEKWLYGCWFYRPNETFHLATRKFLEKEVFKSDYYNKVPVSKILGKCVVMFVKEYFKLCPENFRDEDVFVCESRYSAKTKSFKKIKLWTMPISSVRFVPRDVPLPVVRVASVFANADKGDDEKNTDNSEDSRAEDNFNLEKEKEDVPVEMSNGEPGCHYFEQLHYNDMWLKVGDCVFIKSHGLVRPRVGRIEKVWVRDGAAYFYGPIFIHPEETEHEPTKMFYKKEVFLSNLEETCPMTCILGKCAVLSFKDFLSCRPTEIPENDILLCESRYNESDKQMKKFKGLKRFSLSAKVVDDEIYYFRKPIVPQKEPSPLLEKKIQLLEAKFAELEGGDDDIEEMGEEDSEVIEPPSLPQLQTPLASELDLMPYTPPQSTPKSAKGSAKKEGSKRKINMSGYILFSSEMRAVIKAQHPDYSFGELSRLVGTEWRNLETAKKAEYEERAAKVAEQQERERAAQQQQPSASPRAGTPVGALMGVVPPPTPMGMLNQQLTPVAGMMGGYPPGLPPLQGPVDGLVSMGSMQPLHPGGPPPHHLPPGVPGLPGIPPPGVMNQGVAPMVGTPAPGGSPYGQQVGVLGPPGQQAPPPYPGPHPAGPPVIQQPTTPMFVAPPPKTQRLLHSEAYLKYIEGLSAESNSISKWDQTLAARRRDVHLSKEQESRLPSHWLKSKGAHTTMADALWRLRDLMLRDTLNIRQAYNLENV
# UniProt Q923Y9, whole entry: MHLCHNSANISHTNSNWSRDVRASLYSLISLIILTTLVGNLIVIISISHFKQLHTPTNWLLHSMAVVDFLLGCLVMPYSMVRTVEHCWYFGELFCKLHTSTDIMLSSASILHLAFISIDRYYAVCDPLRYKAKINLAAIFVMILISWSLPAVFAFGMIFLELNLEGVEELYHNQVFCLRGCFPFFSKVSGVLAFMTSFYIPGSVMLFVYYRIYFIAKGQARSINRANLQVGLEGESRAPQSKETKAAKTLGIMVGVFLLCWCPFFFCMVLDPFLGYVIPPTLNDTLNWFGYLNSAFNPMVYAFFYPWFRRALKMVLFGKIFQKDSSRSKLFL
# UniProt Q8TDQ0, whole entry, looked up: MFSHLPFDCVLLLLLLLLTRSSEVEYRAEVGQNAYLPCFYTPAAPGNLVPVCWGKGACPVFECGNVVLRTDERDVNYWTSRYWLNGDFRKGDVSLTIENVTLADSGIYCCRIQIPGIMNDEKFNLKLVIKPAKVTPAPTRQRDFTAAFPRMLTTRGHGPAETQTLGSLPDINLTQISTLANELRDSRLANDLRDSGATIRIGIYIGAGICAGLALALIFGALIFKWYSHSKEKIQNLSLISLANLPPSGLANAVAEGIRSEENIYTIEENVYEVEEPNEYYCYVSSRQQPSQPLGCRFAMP
# Compare with care: the assays were run in different laboratories. ± gives the spread as reported.
# RPA1 N-terminal domain: Replication protein A 70 kDa DNA-binding subunit, N-terminal domain (RPA1, Homo sapiens, UniProt P27694)
# WEE1/CRBN: WEE1/CRBN (Homo sapiens, UniProt P30291+Q96SW2)
SMILES,target,test,test system,setting,measurement,result
Cc1c(=O)n(C)c(Nc2ccc(I)cc2F)c2c(=O)n(C3CC3)c(=O)n(-c3cccc(NC(=O)CCOCCOCCNC(=O)CCC4=[N+]5C(=Cc6ccc(-c7ccc[nH]7)n6[B-]5(F)F)C=C4)c3)c12,"Dual specificity mitogen-activated protein kinase kinase 1, with KSR2 (MAP2K1, Homo sapiens, UniProt Q02750)","binding, NanoBRET",HEK-293T,MEK1-NanoLuc with KSR2,EC50,35.2 ± 3.5 nM
CCc1ccc(NC(=O)c2ccc(C)c(S(=O)(=O)Nc3ccc(Br)cc3)c2)c(C(=O)O)c1,RPA1 N-terminal domain,"binding, fluorescence polarisation competition",,added: FITC-ATRIP probe,Kd,9000 ± 830 nM
Cc1cccc2nc(-c3ccc4c(c3)C(=O)N(C3CCC(=O)NC3=O)C4=O)c(NC(C)(C)CC(C)(C)C)n12 (centres unmarked),WEE1/CRBN,"degrader, HiBiT luciferase",Jurkat (HiBiT-tagged),5 h,DC50,140 ± 20 nM
Cc1ccc(C(=O)Nc2ccccc2C(=O)O)cc1S(=O)(=O)NC1CCCC1,RPA1 N-terminal domain,"binding, fluorescence polarisation competition",,added: FITC-ATRIP probe,Kd,> 250000 nM
CCN(CC(=O)Nc1ccc2c(c1)OCCO2)c1ncnc2scc(-c3ccc(OC)cc3)c12,"CD27 antigen (CD27, Homo sapiens, UniProt P26842)","binding, microscale thermophoresis",,,Kd,4210 nM
CN1CCN(S(=O)(=O)c2cc(Cl)ccc2Cl)CC1,"Melanopsin (OPN4, Homo sapiens, UniProt Q9UHM6)","calcium release, antagonist, FLIPR Fluo-4",CHO cells expressing human OPN4,,Kb,13000 nM
Cc1ncsc1-c1ccc([C@H](C)NC(=O)[C@@H]2C[C@@H](O)CN2C(=O)[C@@H](NC(=O)CCCCCCC(=O)N2CCN(C[C@]3(C)CCC(c4ccc(Cl)cc4)=C(CN4CCN(c5ccc(C(=O)NS(=O)(=O)c6ccc(N[C@H](CCN7CCOCC7)CSc7ccccc7)c(S(=O)(=O)C(F)(F)F)c6)cc5)CC4)C3)CC2)C(C)(C)C)cc1,"Bcl-2-like protein 1 (BCL2L1, Homo sapiens, UniProt Q07817)","protein degradation, degrader, western blot",WI-38 irradiation-induced senescent,,DC50,2.81 nM
CC(C)(C)CC(C)(C)Nc1c(-c2ccc3c(c2)CN(C2CCC(=O)NC2=O)C3=O)nc2ccccn12 (centres unmarked),WEE1/CRBN,"degrader, HiBiT luciferase",Jurkat (HiBiT-tagged),5 h,DC50,2 ± 0.8 nM
Cc1ccc(C(=O)Nc2cc(F)ccc2C(=O)O)cc1S(=O)(=O)Nc1ccc(Br)cc1,RPA1 N-terminal domain,"binding, fluorescence polarisation competition",,added: FITC-ATRIP probe,Kd,34000 ± 3500 nM
CC(=O)Nc1ncc(CN2CC[C@H](Oc3cccc(F)n3)C[C@@H]2C)s1 [isotope labelled],"Protein O-GlcNAcase (OGA, Homo sapiens, UniProt O60502)",saturation binding,human cortex homogenate,radiolabelled compound,Kd,2.2 ± 0.4 nM
Cc1cccc(C2NC(=O)c3c(Cl)cccc3N2)c1 (racemic),"Protein polybromo-1, BD2 (PBRM1, Homo sapiens, UniProt Q86U86, V269I)",ITC,,mutant,Kd,11000 ± 2000 nM
NCC(c1ccc(O)cc1)c1ccc(Oc2ccccc2)cc1 (centres unmarked),"Trace amine-associated receptor 1 (Rattus norvegicus, UniProt Q923Y9)","cAMP production, agonist",HEK293,,EC50,6 ± 1 nM
CCc1ccc(NS(=O)(=O)c2cc(C(=O)Nc3ccccc3C(=O)O)ccc2C)cc1,RPA1 N-terminal domain,"binding, fluorescence polarisation competition",,added: FITC-ATRIP probe,Kd,95000 ± 6500 nM
COc1cc(OC)c(C2CC(c3c(C)cc4oc(=O)cc(C)c4c3O)=NN2)cc1OC (centres unmarked),"Hepatitis A virus cellular receptor 2 (Homo sapiens, UniProt Q8TDQ0)",microscale thermophoresis,,,Kd,1520 nM

# Some of these lines once more:
SMILES,target,test,test system,setting,measurement,result
Cc1ccc(C(=O)Nc2ccccc2C(=O)O)cc1S(=O)(=O)NC1CCCC1,RPA1 N-terminal domain,"binding, fluorescence polarisation competition",,added: FITC-ATRIP probe,Kd,> 250000 nM
CCc1ccc(NC(=O)c2ccc(C)c(S(=O)(=O)Nc3ccc(Br)cc3)c2)c(C(=O)O)c1,RPA1 N-terminal domain,"binding, fluorescence polarisation competition",,added: FITC-ATRIP probe,Kd,9000 ± 830 nM
